Values quoted from earlier work as cited in several papers.
Compare with care: the assays were run in different laboratories. ± marks the error that the study gave.
CHRM2: Muscarinic acetylcholine receptor M2 (CHRM2, Homo sapiens, UniProt P08172)
UniProt P08172, sequence (whole entry, looked up): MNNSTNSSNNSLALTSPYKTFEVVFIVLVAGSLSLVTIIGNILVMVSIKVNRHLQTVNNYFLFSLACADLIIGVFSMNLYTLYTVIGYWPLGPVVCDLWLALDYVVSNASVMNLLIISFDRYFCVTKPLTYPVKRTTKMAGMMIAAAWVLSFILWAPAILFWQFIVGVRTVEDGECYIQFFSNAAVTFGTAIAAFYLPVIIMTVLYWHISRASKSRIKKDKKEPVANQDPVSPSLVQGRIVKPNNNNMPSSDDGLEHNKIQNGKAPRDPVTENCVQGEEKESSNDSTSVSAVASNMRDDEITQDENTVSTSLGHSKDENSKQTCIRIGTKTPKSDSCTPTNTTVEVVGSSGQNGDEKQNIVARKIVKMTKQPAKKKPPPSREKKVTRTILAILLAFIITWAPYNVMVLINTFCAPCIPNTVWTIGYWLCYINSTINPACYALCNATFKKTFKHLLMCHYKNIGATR
UniProt P06536, sequence (whole entry, looked up): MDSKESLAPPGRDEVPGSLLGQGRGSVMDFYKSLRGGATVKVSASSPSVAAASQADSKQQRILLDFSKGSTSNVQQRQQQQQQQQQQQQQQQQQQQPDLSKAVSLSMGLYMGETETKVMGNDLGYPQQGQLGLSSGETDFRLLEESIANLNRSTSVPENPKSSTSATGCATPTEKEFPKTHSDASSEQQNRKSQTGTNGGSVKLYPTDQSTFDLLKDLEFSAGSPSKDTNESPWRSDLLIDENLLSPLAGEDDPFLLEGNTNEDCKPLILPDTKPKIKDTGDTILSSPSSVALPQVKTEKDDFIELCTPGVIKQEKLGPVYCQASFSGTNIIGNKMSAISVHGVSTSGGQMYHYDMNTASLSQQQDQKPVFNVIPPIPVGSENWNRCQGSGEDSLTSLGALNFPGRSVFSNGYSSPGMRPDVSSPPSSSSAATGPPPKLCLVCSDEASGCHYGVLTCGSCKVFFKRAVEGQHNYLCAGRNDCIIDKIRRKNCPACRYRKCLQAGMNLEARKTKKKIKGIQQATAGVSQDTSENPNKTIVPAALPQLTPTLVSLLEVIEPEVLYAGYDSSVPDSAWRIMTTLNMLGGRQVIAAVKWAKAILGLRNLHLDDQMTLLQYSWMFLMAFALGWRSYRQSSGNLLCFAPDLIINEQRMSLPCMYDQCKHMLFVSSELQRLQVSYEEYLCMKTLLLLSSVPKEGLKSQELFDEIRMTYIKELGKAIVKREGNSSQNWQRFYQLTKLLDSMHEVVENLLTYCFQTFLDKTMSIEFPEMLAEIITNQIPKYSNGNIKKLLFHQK
UniProt Q8TCC7, sequence (whole entry, looked up): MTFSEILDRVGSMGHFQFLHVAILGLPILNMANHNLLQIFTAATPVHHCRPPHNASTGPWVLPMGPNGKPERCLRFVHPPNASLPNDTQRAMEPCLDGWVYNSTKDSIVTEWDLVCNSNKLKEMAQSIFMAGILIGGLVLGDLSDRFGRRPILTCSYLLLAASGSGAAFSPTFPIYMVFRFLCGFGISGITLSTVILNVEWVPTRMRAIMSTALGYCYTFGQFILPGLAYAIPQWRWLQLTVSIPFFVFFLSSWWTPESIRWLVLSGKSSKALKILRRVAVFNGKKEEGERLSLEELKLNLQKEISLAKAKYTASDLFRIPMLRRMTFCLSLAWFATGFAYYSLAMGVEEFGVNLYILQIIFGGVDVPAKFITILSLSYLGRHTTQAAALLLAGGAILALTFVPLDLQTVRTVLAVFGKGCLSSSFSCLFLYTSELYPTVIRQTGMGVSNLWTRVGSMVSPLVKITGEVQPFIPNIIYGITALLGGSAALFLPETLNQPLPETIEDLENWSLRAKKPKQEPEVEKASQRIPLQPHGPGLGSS
UniProt P10721, sequence (whole entry, looked up): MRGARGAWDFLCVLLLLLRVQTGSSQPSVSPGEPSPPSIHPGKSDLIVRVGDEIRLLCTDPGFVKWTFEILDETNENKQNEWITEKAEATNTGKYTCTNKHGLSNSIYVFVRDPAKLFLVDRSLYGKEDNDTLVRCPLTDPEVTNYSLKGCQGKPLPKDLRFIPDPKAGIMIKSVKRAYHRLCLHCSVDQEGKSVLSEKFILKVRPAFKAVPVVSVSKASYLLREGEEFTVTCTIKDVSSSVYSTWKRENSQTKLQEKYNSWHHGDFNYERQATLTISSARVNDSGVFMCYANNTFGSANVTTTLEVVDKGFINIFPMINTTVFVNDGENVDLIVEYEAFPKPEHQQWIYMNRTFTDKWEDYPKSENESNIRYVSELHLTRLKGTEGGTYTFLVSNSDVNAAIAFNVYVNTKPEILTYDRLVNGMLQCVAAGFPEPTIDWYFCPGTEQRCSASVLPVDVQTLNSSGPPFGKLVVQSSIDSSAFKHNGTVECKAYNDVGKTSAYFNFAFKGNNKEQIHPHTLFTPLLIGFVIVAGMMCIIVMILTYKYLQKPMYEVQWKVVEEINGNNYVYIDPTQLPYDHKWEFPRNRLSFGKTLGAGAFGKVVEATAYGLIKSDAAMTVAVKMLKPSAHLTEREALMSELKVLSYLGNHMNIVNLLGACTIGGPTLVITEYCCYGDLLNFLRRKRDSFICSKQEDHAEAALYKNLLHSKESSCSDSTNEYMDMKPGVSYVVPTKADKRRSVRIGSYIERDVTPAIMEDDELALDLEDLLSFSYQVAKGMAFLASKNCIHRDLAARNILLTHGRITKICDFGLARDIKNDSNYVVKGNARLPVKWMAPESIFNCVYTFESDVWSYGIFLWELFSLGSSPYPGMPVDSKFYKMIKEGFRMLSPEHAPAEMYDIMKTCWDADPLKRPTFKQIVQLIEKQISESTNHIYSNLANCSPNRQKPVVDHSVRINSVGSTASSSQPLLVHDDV
UniProt P35348, sequence (whole entry, looked up): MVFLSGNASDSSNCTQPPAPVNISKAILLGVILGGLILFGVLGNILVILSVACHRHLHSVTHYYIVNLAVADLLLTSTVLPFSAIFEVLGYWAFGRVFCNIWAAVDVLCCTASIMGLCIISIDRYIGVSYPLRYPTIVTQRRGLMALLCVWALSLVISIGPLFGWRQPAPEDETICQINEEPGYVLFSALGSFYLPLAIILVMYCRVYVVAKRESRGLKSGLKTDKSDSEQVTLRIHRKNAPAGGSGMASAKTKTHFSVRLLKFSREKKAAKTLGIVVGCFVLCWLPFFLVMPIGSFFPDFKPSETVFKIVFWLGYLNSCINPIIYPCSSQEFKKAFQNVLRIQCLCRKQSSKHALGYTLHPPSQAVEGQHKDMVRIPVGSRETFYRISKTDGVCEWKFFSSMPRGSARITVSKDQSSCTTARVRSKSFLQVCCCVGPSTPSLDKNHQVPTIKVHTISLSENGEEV
UniProt Q99814, sequence (whole entry, looked up): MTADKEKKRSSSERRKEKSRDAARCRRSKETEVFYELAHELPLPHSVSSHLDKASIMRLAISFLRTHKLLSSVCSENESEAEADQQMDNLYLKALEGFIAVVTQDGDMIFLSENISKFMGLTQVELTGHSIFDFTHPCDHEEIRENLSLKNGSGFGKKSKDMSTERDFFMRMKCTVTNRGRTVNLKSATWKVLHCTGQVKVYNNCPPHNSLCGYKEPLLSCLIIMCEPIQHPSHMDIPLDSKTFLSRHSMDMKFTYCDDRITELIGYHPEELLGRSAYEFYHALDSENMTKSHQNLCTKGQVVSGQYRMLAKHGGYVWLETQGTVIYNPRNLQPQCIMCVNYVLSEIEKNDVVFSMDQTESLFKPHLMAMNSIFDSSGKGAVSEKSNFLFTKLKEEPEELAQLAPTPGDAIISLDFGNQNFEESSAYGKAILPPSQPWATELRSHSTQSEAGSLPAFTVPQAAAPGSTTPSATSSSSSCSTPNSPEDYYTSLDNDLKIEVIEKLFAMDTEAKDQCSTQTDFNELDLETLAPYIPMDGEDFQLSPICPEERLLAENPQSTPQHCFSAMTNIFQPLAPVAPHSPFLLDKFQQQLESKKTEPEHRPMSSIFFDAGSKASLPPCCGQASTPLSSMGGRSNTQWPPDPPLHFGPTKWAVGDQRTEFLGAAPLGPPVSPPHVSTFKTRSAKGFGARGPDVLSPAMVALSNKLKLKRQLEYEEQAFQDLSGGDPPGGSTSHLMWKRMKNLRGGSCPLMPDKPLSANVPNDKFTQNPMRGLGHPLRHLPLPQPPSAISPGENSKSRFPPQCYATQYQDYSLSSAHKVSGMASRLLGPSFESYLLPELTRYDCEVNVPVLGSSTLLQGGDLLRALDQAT
UniProt O60678, sequence (whole entry, looked up): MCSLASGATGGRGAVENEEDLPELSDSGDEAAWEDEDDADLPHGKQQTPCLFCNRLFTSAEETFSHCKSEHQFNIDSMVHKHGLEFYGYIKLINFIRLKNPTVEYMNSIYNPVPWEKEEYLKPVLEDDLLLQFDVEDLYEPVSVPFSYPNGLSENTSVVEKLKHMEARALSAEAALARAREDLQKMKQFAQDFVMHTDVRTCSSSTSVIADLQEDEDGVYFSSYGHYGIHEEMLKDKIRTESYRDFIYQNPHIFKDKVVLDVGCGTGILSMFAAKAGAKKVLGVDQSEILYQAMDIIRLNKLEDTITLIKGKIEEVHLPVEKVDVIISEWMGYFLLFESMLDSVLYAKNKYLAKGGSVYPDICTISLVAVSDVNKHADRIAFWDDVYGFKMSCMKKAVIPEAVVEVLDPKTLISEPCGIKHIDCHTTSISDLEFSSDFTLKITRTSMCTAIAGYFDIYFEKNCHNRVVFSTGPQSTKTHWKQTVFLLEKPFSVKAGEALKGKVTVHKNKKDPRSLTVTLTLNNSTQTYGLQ

Compound | tested on | test | test system | conditions | how to read | quantity | value
CC(C)CCC[C@@H](C)[C@H]1CC[C@H]2[C@@H]3[C@H](O)CC4=CC(=O)CC[C@]4(C)[C@H]3CC[C@]12C | 7-alpha-hydroxycholest-4-en-3-one 12-alpha-hydroxylase (Homo sapiens, UniProt Q9UNU6, W281F) | substrate | – | W281F mutant | – | Km | 0.54 µM
O=C(Nc1nc2ccccc2[nH]1)c1ccccc1 | RAR-related orphan receptor gamma | – | – | PubChem AID 2551 | – | activity | 6.3 µM
Nc1ccn([C@@H]2O[C@H](CO)[C@@H](O)[C@H]2F)c(=O)n1 | cytidine deaminase (human) | substrate | – | concentration not given | – | Km | 16 µM
Cc1nc(NC(=O)N2CCC[C@H]2C(N)=O)sc1-c1ccnc(C(C)(C)C(F)(F)F)c1 | PIK3CB (Homo sapiens, UniProt P42338) | KinomeScan competition binding | – | 10 µM | – | remaining binding | 2.9%
CNC(C)C1CCC(N)C(OC2C(N)CC(N)C(OC3OCC(C)(O)C(NC)C3O)C2O)O1 (stereo not drawn) | Escherichia coli | – | clinical isolate RKI-No_521/16 | – | – | MIC | > 8 µg/mL
C[N+]1(C)CCC(OC(=O)C(c2ccccc2)c2ccccc2)CC1.[I-] | CHRM2 | binding | – | – | – | Hill coefficient | 1
Cn1c(=O)c2[nH]cnc2n(C)c1=O | Cytochrome P450 1A2 (CYP1A2, Homo sapiens, UniProt P05177) | substrate | – | – | – | Km | 280 to 1230 µM
N[C@@H](CC(=O)c1ccccc1)C(=O)O | kynureninase (Pseudomonas fluorescens) | substrate | – | – | relative to: L-kynurenine | relative kcat/Km | ~10%
CCN(c1cc(-c2ccc(CN3CCOCC3)cc2)cc(C(=O)NCc2c(C)cc(C)[nH]c2=O)c1C)C1CCOCC1 | PRMT3 (Homo sapiens, UniProt O60678) | enzyme activity, inhibitor | – | 1 µM | – | inhibition | 2 ± 2%
CCCCCN1C[C@H](O)[C@@H](O)[C@H](O)[C@@H]1CO | sucrase | – | – | concentration not given | – | inhibition | inactive
CCC(=O)O[C@]1(C(=O)SCF)[C@H](C)C[C@H]2[C@@H]3C[C@H](F)C4=CC(=O)C=C[C@]4(C)[C@@]3(F)[C@@H](O)C[C@@]21C | Nr3c1 (Rattus norvegicus, UniProt P06536) | – | rat, spleen | intravenous, 90 nmol/kg, 4.005 (unit not given) | – | receptor occupancy | 45.7%
Cc1cc(NC(=O)c2cccc(NC(=O)/C=C/CN(C)C)c2)ccc1Nc1nccc(-c2cccnc2)n1 | KIT (Homo sapiens, UniProt P10721) | enzyme activity, inhibitor | – | 1 µM | relative to: vehicle | remaining activity | 4%
COc1cc2c3c(c1OC)-c1cc4c(cc1CC3N(C)CC2)OCO4 (stereo not drawn) | ADRA1A (Homo sapiens, UniProt P35348) | antagonist | – | – | – | Ke | 36 ± 7 nM
C=CC(=O)N1CCC(C(=O)NCC(=O)N2CCN(c3nc(-c4cnc(N)nc4C(F)F)nc(N4CCOCC4)n3)CC2)CC1 | PIK3C3 (Homo sapiens, UniProt Q8NEB9) | kinase activity | – | 1 µM | – | remaining activity | 4.5%
O=C(CCCCCCc1ccccc1)c1ncc(-c2ccccn2)o1 | TRP vanilloid receptors | – | – | concentration not given | – | binding | no binding
CC1=CC(=O)CC(C)(C)C1=O | 12-oxophytodienoate reductase OPR3 (isoform 3) | ene-reductase biotransformation, substrate | – | – | – | conversion | 95 to 98%
CC1(C)S[C@@H]2[C@H](NC(=O)[C@H](N)c3ccccc3)C(=O)N2[C@H]1C(=O)O | Escherichia coli | – | clinical isolate RKI 131/08 | – | – | MIC | > 16 µg/mL
C[N+]1(C)CCC(OC(=O)C(c2ccccc2)c2ccccc2)CC1.[I-] | CHRM2 | – | – | historical reference value | – | Hill coefficient | 1
COc1cccc(OC)c1-c1cc(C(=O)NC2(C(=O)O)CCCCC2)nn1-c1ccc(F)cc1 | Ntsr1 (Rattus norvegicus, UniProt P20789) | antagonist, FLIPR calcium | – | – | – | Ke | > 10000 nM
O=[N+]([O-])c1cc(C(F)(F)F)ccc1NN1CCOCC1 | Endothelial PAS domain-containing protein 1, PAS-B domain (EPAS1, Homo sapiens, UniProt Q99814) | isothermal titration calorimetry | – | concentration not given, <0.1% DMSO | – | binding enthalpy | -8.1 kcal/mol
CC(C)=CCCC(C)=CC=O (mixture of isomers) | 12-oxophytodienoate reductase OPR1 (isoform 1) | ene-reductase biotransformation, substrate | – | – | – | conversion | 15 to 99%
Nc1ccn([C@H]2C[C@H](O)[C@@H](CO)O2)c(=O)n1 | cytidine deaminase (human) | substrate | – | concentration not given | – | Km | 3.9 µM
Nc1ncnc2c1ncn2[C@@H]1O[C@H](COP(=O)(O)OP(=O)(O)OP(=O)(O)O)[C@@H](O)[C@H]1O | asparagine synthetase (Escherichia coli) | substrate | – | – | – | Km | 270 µM
CC(C)(O)c1cnc2ncc(-c3ccc(F)c(-c4c(F)cccc4C#N)c3)n2n1 | GABAA receptor benzodiazepine site | receptor occupancy | rat | oral | – | Occ50 | 0.09 mg/kg
Nc1cc(C(F)(F)F)c(-c2nc(N3CCOCC3)nc(N3CCOCC3)n2)cn1 | EGFR (Homo sapiens, UniProt P00533, L858R/T790M) | enzyme activity | – | 10 µM | relative to: untreated | remaining activity | 78%
CC/C=C(\C)C=O | 12-oxophytodienoate reductase OPR3 (isoform 3) | ene-reductase biotransformation, substrate | – | – | – | conversion | 70%
C[C@@H](O)[C@H]1C(=O)N2C(C(=O)O)=C(S[C@@H]3CN[C@H](C(=O)N(C)C)C3)[C@H](C)[C@H]12 | SLC22A8 (Homo sapiens, UniProt Q8TCC7) | substrate | – | – | – | Km | 847 µM
